Measurements of several laboratories.
Parts stem from different laboratories: compare values within a part only.
UniProt P18825, sequence (whole entry, looked up): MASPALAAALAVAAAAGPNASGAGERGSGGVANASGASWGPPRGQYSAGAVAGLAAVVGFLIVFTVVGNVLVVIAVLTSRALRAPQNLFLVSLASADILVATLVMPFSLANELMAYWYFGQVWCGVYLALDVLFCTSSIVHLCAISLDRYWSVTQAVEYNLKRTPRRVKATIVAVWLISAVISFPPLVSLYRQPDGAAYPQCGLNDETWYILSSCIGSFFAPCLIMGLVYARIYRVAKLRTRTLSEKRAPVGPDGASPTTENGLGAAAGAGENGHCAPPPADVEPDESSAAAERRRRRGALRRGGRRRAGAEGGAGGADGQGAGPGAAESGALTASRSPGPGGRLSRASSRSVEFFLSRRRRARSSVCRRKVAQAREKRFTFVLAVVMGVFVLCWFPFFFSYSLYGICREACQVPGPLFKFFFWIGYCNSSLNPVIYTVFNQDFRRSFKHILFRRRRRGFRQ
UniProt P34969, sequence (whole entry, looked up): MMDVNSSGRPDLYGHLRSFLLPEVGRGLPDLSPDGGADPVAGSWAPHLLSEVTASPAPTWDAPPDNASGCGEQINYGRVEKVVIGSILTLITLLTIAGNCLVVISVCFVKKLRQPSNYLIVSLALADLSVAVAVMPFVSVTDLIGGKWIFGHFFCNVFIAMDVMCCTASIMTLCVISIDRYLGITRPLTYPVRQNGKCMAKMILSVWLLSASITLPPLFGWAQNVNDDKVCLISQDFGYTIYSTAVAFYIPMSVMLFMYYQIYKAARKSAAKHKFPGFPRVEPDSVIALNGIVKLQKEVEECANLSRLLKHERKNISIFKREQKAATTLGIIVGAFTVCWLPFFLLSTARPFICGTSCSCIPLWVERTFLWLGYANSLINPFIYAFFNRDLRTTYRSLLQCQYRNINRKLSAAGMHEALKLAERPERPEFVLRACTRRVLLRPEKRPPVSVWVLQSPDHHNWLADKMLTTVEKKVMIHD
UniProt P08172, sequence (whole entry, looked up): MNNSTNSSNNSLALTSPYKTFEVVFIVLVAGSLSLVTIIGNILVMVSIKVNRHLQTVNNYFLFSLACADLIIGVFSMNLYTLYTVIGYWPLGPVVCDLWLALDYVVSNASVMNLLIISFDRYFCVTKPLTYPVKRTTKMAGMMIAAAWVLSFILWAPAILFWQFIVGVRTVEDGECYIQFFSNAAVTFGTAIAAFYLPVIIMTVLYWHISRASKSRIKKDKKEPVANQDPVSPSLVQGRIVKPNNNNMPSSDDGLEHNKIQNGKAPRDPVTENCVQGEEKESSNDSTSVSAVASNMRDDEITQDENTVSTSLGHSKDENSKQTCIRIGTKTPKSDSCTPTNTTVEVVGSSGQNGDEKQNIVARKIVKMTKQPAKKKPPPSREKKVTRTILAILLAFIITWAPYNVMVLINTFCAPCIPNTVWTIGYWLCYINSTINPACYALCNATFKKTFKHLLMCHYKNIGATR

Study 1
Target: PABPC1L2, full length, GST fusion (mouse, UniProt A0ABA7IW68)
Technique: RNAcompete
Molecule type: RNA
Matrix: in vitro
Tested at: 20 nM
Setting: 7-mer, probes averaged, single round
Reference: mean of 7-mers
Reading: higher = stronger binding
Residues (chain): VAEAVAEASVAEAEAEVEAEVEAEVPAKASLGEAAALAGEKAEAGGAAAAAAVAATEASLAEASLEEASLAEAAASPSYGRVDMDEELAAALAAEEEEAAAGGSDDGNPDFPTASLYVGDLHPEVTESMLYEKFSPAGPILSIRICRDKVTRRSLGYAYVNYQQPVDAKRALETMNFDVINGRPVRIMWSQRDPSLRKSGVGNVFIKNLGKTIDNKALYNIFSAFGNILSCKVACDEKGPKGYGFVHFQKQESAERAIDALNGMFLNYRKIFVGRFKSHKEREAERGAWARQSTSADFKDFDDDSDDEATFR
`GAUUUGG` has a 7-mer Z-score of -0.2.
With `ACCGUUC` the 7-mer Z-score was -0.335.
For `GUGGAUA`, the 7-mer Z-score was 0.341.
For `GAGAGUU`, the 7-mer Z-score was -0.309.
The 7-mer Z-score of `ACACGGA` is reported as 0.356.
With `GACUUCU` the 7-mer Z-score was -0.251.
The 7-mer Z-score of `GCUGUCU` is reported as -0.257.
`CCAGAAA` has a 7-mer Z-score of 1.35.

Study 2
Target: Prothrombin, mature alpha-thrombin (F2, Homo sapiens, UniProt P00734)
Technique: aptamer microarray, sandwich
Molecule type: DNA with 2'F-ANA
Matrix: in vitro
Tested at: 200 nM
Setting: whole 15-mer aptamer, many near background
With: Cy3 exosite-II aptamer, 400 nM
Reading: higher = stronger binding
Strand: GGTTGGTGTGGTTGG
For `2'F-ANA at 2 4 13 14 15`, “mean fluorescence intensity” read 112 a.u.
`2'F-ANA at 1 5 6 8 9 11 12 13 15`: “mean fluorescence intensity” 75 a.u.
For `2'F-ANA at 2 8 9 10 11 15`, “mean fluorescence intensity” read 119 a.u.
`2'F-ANA at 3 4 5 6 7 8 9 11 12 14` — result for “mean fluorescence intensity”: 52.1 a.u.
For `2'F-ANA at 4 5 12 13`, “mean fluorescence intensity” read 159 a.u.
`2'F-ANA at 1 2 4 6 7 10 11 13 14 15`: “mean fluorescence intensity” 49.9 a.u.
For `2'F-ANA at 3 5 8 10 13 14 15`, “mean fluorescence intensity” read 95 a.u.
`2'F-ANA at 1 3 5 7 12 13` — result for “mean fluorescence intensity”: 86.4 a.u.

Study 3
Target: Casein kinase II subunit alpha' (CSNK2A2, Homo sapiens, UniProt P19784)
UniProt P19784, sequence (whole entry, looked up): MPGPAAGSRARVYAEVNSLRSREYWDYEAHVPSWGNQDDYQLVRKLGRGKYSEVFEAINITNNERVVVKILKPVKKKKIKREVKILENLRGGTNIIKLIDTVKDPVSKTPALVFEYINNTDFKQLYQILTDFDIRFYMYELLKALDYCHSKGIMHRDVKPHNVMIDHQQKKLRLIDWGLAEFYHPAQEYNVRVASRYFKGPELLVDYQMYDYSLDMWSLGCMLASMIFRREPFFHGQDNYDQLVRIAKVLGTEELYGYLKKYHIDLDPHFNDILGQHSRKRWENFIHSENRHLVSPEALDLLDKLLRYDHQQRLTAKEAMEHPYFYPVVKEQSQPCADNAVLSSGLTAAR
Observed: enzyme activity
Action: inhibitor
Tested at: 0.5 µM
Reference: control
The remaining activity of `CN(C)c1ccc(C=C2C(=O)Nc3ccccc32)cc1` is reported as 98.6%.
For `Nc1[nH]nc2nc3ccccc3nc12`, the remaining activity was 94%.
The remaining activity of `CNC(=O)c1cc(Oc2ccc(NC(=O)Nc3ccc(Cl)c(C(F)(F)F)c3)cc2)ccn1` is reported as 94.4%.
`Cc1nc(-c2ccccc2)c(-c2ccncc2)o1` has a remaining activity of 89.8%.
`O=S(=O)(c1cccc2cnccc12)N1CCCNCC1` gave a remaining activity of 91.9%.
For `Cn1sc(=O)n(Cc2ccccc2)c1=O`, the remaining activity was 98.5%.
`COc1cc2nccc(Oc3ccc(NC(=S)NC(=O)c4ccccc4C)cc3)c2cc1OC` has a remaining activity of 96.6%.
`OCC(O)CCON=C1C(c2c(O)[nH]c3ccccc23)=Nc2ccccc21` (centres unmarked) gave a remaining activity of 28.3%.
`COc1ccc(CNC(=O)Nc2ncc([N+](=O)[O-])s2)cc1` gave a remaining activity of 92.9%.
The remaining activity of `O=C(O)c1ccc2c3c1cccc3c(=O)n1c3ccccc3nc21` is reported as 13.3%.
The remaining activity of `O=C1NC(=O)C(c2cn(CCCn3ccnc3)c3ccccc23)=C1Nc1ccccc1` is reported as 87.6%.
`O=c1c2ccccc2[nH]c(=S)n1CCN1CCC(=C(c2ccc(F)cc2)c2ccc(F)cc2)CC1` gave a remaining activity of 97.7%.
With `N#CC(C#N)=C(N)/C(C#N)=C/c1ccc(O)cc1` the remaining activity was 102%.
For `O=C(CCCc1ccc(-c2ccccc2F)cc1)Nc1ccc(O)cc1`, the remaining activity was 78.7%.

Study 4
SMILES: O=C(NCc1ncc(C(F)(F)F)cc1Cl)c1ccc2c(c1)C1(CCS(=O)(=O)CC1)[C@H](C1CC1)N2S(=O)(=O)c1ccc(F)cc1
Observed: ligand displacement
Tested at: 10 µM
HTR7 (Homo sapiens, UniProt P34969) — inhibition: -8.16%.
For ADRB2 (Homo sapiens, UniProt P07550): inhibition read -16.8%.
It gave 8.38% for inhibition (CHRM2 (Homo sapiens, UniProt P08172)).
It gave 12.8% for inhibition (ADRA2C (Homo sapiens, UniProt P18825)).

Other studies, line by line
The treatment-related AEs of `CC(C)n1cnc(-c2ccc(F)cc2)c1-c1ncc(C(=O)Nc2ccc(N3CCN(C)CC3)cc2)[nH]1` is reported as 60% (human, idiopathic pulmonary fibrosis; 30 mg twice daily, trial, without standard of care).
